Assay results of several laboratories.
Parts stem from different laboratories: compare values within a part only. Values joined by “and” are separate records of one study, mostly repeats; a detail may differ.
UniProt P42336, sequence (whole entry, unmodified, looked up): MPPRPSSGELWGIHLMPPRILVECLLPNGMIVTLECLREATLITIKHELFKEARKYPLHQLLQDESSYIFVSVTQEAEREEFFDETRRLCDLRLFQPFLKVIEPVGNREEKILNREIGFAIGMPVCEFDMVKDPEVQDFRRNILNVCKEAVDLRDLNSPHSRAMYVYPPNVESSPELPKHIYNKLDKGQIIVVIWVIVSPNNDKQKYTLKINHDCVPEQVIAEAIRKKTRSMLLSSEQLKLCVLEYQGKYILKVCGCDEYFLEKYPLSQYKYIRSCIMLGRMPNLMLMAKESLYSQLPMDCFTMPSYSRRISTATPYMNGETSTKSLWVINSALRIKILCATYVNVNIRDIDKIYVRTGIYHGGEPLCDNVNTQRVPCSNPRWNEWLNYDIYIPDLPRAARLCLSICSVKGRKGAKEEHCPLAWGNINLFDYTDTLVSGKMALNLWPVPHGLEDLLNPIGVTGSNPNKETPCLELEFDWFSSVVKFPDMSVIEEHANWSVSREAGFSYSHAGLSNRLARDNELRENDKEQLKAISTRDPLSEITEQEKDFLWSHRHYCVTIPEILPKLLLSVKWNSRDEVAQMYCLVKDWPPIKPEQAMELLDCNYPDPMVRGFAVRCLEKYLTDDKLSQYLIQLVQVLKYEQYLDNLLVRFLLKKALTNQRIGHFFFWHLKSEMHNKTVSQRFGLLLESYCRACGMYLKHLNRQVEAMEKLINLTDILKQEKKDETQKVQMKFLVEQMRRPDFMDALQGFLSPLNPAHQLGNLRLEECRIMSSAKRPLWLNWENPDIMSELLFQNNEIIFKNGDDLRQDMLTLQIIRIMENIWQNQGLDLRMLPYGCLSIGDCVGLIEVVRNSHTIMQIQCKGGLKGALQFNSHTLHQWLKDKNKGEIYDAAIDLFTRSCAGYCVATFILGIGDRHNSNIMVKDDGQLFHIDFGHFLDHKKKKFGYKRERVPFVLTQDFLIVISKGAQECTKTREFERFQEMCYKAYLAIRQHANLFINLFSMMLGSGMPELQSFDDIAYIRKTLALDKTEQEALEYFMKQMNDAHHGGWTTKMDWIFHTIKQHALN
UniProt Q7L7X3, sequence (whole entry, looked up): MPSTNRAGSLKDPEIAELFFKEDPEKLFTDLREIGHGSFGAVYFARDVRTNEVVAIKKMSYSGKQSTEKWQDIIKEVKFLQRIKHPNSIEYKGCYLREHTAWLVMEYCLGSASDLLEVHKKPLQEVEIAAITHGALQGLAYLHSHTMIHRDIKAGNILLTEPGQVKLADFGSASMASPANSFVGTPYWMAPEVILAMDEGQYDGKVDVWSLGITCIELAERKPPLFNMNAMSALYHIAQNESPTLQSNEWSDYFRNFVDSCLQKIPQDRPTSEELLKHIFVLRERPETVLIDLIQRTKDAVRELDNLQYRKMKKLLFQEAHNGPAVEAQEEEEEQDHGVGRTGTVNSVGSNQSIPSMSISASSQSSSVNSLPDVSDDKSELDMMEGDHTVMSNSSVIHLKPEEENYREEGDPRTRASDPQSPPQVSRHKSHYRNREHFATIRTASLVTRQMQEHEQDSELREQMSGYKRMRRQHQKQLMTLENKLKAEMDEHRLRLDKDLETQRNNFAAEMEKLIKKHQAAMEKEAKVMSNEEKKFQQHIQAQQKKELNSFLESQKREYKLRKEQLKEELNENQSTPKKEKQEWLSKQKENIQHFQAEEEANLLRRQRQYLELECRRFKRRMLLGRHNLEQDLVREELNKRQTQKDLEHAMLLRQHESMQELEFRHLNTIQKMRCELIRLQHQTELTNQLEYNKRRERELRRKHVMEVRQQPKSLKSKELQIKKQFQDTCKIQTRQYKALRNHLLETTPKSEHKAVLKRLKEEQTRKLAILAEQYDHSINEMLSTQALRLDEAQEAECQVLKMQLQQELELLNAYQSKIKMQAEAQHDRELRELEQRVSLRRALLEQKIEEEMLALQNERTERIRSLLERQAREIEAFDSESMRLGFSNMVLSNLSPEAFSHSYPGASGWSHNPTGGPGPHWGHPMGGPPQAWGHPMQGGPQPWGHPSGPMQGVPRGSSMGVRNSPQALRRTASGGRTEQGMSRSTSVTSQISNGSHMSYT
UniProt Q15139, sequence (whole entry, looked up): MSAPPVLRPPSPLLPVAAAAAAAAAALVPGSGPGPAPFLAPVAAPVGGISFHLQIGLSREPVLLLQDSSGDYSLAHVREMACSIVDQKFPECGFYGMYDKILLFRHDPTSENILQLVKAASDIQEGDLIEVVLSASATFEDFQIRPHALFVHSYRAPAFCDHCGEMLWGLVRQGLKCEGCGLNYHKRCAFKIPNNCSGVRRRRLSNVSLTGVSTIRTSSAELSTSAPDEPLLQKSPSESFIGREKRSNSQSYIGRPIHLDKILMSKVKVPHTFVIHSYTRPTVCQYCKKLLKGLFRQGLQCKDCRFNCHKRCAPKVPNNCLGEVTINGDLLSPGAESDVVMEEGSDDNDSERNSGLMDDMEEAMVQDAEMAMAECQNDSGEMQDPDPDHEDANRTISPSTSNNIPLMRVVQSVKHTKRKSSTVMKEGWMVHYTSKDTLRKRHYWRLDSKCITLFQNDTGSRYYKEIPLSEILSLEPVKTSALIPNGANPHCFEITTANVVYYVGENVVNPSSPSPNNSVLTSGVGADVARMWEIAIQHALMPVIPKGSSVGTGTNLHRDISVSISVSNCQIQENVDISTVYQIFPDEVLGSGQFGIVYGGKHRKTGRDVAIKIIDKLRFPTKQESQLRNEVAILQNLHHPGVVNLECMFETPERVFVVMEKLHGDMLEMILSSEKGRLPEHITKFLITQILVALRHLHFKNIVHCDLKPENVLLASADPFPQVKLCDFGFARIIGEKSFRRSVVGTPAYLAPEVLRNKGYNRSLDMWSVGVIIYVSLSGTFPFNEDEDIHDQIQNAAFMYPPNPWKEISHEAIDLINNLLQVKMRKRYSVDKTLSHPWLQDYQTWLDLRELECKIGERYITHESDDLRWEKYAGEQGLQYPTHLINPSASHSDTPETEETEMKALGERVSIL
UniProt P07949, sequence (whole entry, unmodified, looked up): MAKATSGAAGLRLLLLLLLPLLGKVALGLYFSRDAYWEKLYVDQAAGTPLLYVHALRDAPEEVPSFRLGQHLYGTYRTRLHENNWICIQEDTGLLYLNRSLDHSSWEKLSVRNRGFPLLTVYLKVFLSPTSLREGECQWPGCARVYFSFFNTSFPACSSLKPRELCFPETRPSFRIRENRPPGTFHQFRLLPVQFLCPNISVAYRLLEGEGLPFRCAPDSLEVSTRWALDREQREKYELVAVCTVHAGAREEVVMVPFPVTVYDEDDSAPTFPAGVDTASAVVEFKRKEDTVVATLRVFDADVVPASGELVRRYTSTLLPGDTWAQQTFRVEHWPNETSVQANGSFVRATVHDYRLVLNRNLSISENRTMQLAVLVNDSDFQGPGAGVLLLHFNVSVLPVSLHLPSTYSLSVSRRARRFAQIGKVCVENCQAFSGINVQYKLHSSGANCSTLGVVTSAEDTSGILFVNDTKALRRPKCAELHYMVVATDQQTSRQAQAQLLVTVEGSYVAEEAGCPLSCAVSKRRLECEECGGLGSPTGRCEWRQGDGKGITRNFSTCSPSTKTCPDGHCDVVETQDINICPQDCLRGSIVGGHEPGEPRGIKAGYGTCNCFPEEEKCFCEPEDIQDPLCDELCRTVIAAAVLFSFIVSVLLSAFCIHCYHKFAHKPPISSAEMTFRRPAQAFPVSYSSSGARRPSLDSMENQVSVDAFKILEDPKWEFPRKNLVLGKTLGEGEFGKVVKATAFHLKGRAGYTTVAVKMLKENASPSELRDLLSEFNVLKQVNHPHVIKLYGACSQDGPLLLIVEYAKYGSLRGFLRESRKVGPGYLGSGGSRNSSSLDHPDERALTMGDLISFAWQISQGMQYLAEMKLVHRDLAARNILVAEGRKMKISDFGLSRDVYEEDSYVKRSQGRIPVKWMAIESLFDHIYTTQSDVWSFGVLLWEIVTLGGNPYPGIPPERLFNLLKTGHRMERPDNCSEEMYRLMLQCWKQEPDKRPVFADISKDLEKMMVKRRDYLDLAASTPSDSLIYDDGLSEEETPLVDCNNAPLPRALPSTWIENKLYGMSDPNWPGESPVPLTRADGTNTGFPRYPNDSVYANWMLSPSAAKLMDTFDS
UniProt Q9HBY8, sequence (whole entry, looked up): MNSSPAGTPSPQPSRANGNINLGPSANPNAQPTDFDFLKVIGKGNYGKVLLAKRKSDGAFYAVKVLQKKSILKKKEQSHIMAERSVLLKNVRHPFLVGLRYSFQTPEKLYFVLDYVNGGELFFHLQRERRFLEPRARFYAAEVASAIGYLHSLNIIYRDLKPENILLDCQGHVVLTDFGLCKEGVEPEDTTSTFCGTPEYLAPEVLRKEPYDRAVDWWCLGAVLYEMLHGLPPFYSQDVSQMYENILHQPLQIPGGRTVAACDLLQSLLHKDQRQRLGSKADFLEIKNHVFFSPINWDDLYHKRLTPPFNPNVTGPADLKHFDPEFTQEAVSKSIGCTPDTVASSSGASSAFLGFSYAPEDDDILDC

Set 1
Target: Calcium/calmodulin-dependent protein kinase type II subunit gamma (CAMK2G, Homo sapiens, UniProt Q13555)
UniProt Q13555, sequence (whole entry, looked up): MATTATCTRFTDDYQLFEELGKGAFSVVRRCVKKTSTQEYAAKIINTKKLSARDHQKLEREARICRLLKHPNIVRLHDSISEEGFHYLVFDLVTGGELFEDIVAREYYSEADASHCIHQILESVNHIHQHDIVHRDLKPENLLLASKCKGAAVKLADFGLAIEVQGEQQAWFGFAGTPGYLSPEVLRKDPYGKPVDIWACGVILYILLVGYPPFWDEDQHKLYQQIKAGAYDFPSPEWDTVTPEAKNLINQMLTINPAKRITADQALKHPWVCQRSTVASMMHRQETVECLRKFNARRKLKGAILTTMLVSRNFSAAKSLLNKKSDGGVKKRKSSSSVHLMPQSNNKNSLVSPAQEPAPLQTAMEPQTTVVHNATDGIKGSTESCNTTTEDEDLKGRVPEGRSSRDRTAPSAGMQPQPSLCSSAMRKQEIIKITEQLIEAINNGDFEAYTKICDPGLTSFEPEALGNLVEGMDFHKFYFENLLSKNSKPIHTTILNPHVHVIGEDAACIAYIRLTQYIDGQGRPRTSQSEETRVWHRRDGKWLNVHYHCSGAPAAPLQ
Effect on: enzyme activity
Mode: inhibitor
Concentration: 0.5 µM
Relative to: control
With `N#CC(C#N)=C(N)/C(C#N)=C/c1ccc(O)cc1` the remaining activity was 89.4%.
The remaining activity of `Nc1ccc2ncnc(NCCc3ccc(Oc4ccccc4)cc3)c2c1` is reported as 118%.
`NCCNc1ncc(C(N)=O)c(Nc2cccc(C(F)(F)F)c2)n1` gave a remaining activity of 85.7%.
The remaining activity of `CC(C)[C@H](CO)Nc1nc(Nc2cc(N)cc(Cl)c2)c2ncn(C(C)C)c2n1` is reported as 104%.
With `O=S(=O)(c1cccc2cnccc12)N1CCCNCC1` the remaining activity was 93.1%.
`O=C(O)c1ccc2c3c1cccc3c(=O)n1c3ccccc3nc21` gave a remaining activity of 96.5%.
`CN(C)c1ccc(C=C2C(=O)Nc3ccccc32)cc1` gave a remaining activity of 99.6%.
The remaining activity of `Cc1nc(-c2ccccc2)c(-c2ccncc2)o1` is reported as 91.7%.
`COc1ccc(C(=O)Nc2sc3c(c2C(N)=O)CCCC3)cc1OC` has a remaining activity of 95.8%.
`COc1ccc(CNC(=O)Nc2ncc([N+](=O)[O-])s2)cc1` gave a remaining activity of 102%.
`Cc1ccc(NC(=O)c2ccc(CN3CCN(C)CC3)cc2)cc1Nc1nc(-c2cccnc2)cs1` gave a remaining activity of 98.6%.
The remaining activity of `COc1cc2ncnc(Nc3ccc(F)c(Cl)c3)c2cc1OCCCN1CCOCC1` is reported as 128%.
`COc1cc2ncnc(Nc3ccc(Oc4ccccc4)cc3)c2cc1OC` has a remaining activity of 94%.
For `Nc1[nH]nc2nc3ccccc3nc12`, the remaining activity was 108%.
The remaining activity of `COc1cc2nccc(Oc3ccc(NC(=S)NC(=O)c4ccccc4C)cc3)c2cc1OC` is reported as 103%.

Set 2
Species: human
Sample: microsomes or S9
Concentration: 2 µM
Time: 0.5 h
`CCOC(=O)C(C)n1nc(-n2cccn2)ccc1=O` (stereo not drawn) has a remaining compound of 0%.
`Cc1cc(Br)cc(C(=O)c2c(C(C)C)c(=O)[nH]c(=O)n2Cc2cc(F)nc(F)c2)c1` has a remaining compound of 60.5%.
`Cc1ccc(NC(=O)c2cc3ccccc3n2C)c(OCC(=O)N(C)C)c1` gave a remaining compound of 54.5%.
The remaining compound of `COc1cc(CC2CC(c3cc(OC)c4c(c3)OCO4)=NO2)cc2c1OCO2` (stereo not drawn) is reported as 24.2%.
With `CCOC(=O)N1CCN(C(=O)c2ccc(-c3ccc(Oc4ccccc4)cc3)nc2)CC1` the remaining compound was 3.06%.

Set 3
Compound: CCCCN(CCCC)C(=O)CN1C[C@@H](c2cc(OC)c3c(c2)OCO3)[C@H](C(=O)O)[C@H]1CC(C)(C)CCC
Effect on: cell-free assay
Method: competition with immobilised ligand
Concentration: 1 µM
It gave 93.4% for remaining binding (Protein-tyrosine kinase 2-beta (PTK2B, Homo sapiens, UniProt Q14289)).
For Epidermal growth factor receptor (EGFR, Homo sapiens, UniProt P00533, G719C): remaining binding read 100%.
The remaining binding was 100% (Phosphatidylinositol 4,5-bisphosphate 3-kinase catalytic subunit alpha isoform (PIK3CA, Homo sapiens, UniProt P42336, I800L)).
The remaining binding was 100% (Serine/threonine-protein kinase D1 (PRKD1, Homo sapiens, UniProt Q15139)).
Phosphatidylinositol 4,5-bisphosphate 3-kinase catalytic subunit alpha isoform (PIK3CA, Homo sapiens, UniProt P42336, H1047L) — remaining binding: 62.4%.
The remaining binding was 78.5% (Serine/threonine-protein kinase Sgk2 (SGK2, Homo sapiens, UniProt Q9HBY8)).
For 1-phosphatidylinositol 3-phosphate 5-kinase (PIKFYVE, Homo sapiens, UniProt Q9Y2I7): remaining binding read 81.4%.
For Serine/threonine-protein kinase NIM1 (NIM1K, Homo sapiens, UniProt Q8IY84): remaining binding read 100%.
It gave 82.4% for remaining binding (Proto-oncogene tyrosine-protein kinase receptor Ret (RET, Homo sapiens, UniProt P07949, V804M)).
The remaining binding was 93.5% (Serine/threonine-protein kinase PLK3 (PLK3, Homo sapiens, UniProt Q9H4B4)).
Phosphatidylinositol 3-kinase C2 domain-containing subunit gamma (PIK3C2G, Homo sapiens, UniProt O75747) — remaining binding: 80.3%.
For Serine/threonine-protein kinase TAO1 (TAOK1, Homo sapiens, UniProt Q7L7X3): remaining binding read 97.4%.

Further values, each from its own experiment
For `CNC(=O)c1ccc(-c2cnn3ccc(C(=O)N(CC(=O)O)c4ccc(Cl)cc4)cc23)cc1`, the plasma concentration was 11 nM and 53 nM and 85 nM (female C57BL/6 IFN-γ-knockout mice, plasma; oral, 10 mg/kg, 1 h).
